Results of several laboratories.
Each numbered part is a random draw from the data of one study; scales do not carry over between parts. Substitutions count along the parent as printed.

Series 1
Target: ABI1, truncated, D143A, DHFR fusion (Arabidopsis thaliana)
Method: DHFR PCA, deep sequencing
Sample: yeast
Notes: methotrexate growth selection, single substitutions
Together with: (+)-ABA 0 µM
Relative to: wild-type fitted maximum
Direction: higher = stronger binding
Parent: PYL1, truncated, DHFR fusion (Arabidopsis thaliana); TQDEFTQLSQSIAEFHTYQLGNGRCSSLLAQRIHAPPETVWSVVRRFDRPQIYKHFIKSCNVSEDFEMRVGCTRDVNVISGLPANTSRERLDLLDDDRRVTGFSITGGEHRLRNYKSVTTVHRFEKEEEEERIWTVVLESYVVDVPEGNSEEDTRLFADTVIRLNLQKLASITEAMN; partner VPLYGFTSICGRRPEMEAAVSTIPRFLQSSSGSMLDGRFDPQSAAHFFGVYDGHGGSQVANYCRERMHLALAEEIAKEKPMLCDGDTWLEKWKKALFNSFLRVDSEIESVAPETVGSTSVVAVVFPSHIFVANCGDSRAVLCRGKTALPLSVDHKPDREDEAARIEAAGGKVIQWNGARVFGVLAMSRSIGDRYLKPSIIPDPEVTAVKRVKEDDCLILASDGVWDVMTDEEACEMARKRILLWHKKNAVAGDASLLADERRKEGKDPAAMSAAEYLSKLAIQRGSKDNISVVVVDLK
| Substitution | relative binding score [%] |
| --- | --- |
| Q19N | 29.5 |
| N61P | -1.56 |
| G107C | 2.11 |
| T86R | 12.7 |
| K58E | 15.9 |
| R90C | -2.54 |
| A170E | 1.69 |

Series 2
Target: Fragile X messenger ribonucleoprotein 1, C-terminal low-complexity region (Fmr1, Mus musculus, UniProt P35922)
Method: RNA Bind-n-Seq
Form: RNA
Sample: in vitro
Tested at: 200 nM
Notes: whole 134-nt RNA, ends assumed
Together with: 150 mM LiCl
Relative to: input library
Direction: higher = stronger binding
All molecules: 7-deaza-guanosine replaces G
| Oligonucleotide | log2 enrichment |
| --- | --- |
| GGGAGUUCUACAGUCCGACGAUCAGUCCUGUGCUACACAUCGUAUGUACCGAAUCAAAUUUAAACCCAAAUUUUUUUAAAAAAGUAUUAUGUUACGCCGUUCGGAUCUGCACUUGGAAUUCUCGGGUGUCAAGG | -1.91 |
| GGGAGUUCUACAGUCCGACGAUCUCCUGUGCUACACAUCGUAUGUACCGAAUCGGGAAAAAAGGGAAAAAAGGGGAAAAAAGGAAAGUAUUAUGUUACGCCGUUCGGAUCUGCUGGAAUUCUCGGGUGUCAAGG | -0.684 |
| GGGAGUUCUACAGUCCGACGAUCCCUCAAGUCCUGUGCUACACAUCGUAUGUACCGAAUCGGGUGGGAGGGUGGGAAAGUAUUAUGUUACGCCGUUCGGAUCUGCACUUCCAGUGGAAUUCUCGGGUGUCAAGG | -0.676 |
| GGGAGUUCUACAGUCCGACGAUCCAAGUCCUGUGCUACACAUCGUAUGUACCGAAUCGGGUUUGGUUUGGGGUUUGGGGAAAGUAUUAUGUUACGCCGUUCGGAUCUGCACUUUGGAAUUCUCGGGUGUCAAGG | -1.87 |
| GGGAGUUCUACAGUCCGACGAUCUAACUUUAGAGGAGGAUCUGAUGGAUAUGGCUGUGGACGUGGAUUUGGGGAUGGCUAUAAUGGGUAUGGAGGAGGACCUGGAGGUGGCAAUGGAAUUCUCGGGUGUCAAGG | 0.837 |
| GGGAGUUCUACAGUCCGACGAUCUGCGGGACAAAGAAGUGGCCAAUCGAUACUUUACCACUGUCUGUGUGAGAUUACUGCUUGAGAGCAAAGAAAAGAAGAUCAGGGAAUUCAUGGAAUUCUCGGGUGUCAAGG | -0.0632 |
| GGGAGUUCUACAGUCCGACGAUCUCCUGUGCUACACAUCGUAUGUACCGAAUCGGAAAAAAGGGAAAAAAGGAAAAAAGGGGAAAGUAUUAUGUUACGCCGUUCGGAUCUGCAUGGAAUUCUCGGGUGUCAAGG | -1.3 |
| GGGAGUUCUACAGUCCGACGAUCAGUCCUGUGCUACACAUCGUAUGUACCGAAUCAAACCCCCCCAAACCCAAAUUUAAAAAAGUAUUAUGUUACGCCGUUCGGAUCUGCACUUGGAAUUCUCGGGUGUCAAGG | 1 |
| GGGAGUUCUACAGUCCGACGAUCAAGUCCUGUGCUACACAUCGUAUGUACCGAAUCGGAAAAAAAGGAGGUUUUUUUGGAAAGUAUUAUGUUACGCCGUUCGGAUCUGCACUUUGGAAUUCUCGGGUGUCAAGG | -2.53 |

Mixed results
| Substance | target | test | test system | setting | how to read | measurement | result |
| --- | --- | --- | --- | --- | --- | --- | --- |
| HKTFRKLRLFDTP | human cyclin B2 | cyclin docking binding, deep mutational scanning | peptide, yeast cyclin B2-Cln2 system |  | direction not given | score minus score, wild type | 0 |
| PhoQ, residues 284 288 289 292 302 303 TTSMTC | PhoP, residues 12 14 15 18 19 LHSVQ (Escherichia coli, UniProt P23836) | Sort-seq, refers to: YFP reporter | E. coli | PhoQ-PhoP variant library, together with: 10 µM Mg2+ | relative to: high Mg2+ state, higher = stronger signaling | fold induction | 6.55 |
| PPVKRRLDLETDH | human cyclin D3 | cyclin docking binding, deep mutational scanning | peptide, yeast cyclin D3-Cln2 system |  | direction not given | Cln2-subtracted enrichment score | 0.000921 |

Some of these lines once more (series 1):
| Substitution | relative binding score [%] |
| --- | --- |
| K58E | 15.9 |
| R90C | -2.54 |
| A170E | 1.69 |
